{"data": "Published values pooled from the literature", "note": "Parts stem from different laboratories: compare values within a part only.", "chain of UniProt Q15746 (whole entry, looked up)": "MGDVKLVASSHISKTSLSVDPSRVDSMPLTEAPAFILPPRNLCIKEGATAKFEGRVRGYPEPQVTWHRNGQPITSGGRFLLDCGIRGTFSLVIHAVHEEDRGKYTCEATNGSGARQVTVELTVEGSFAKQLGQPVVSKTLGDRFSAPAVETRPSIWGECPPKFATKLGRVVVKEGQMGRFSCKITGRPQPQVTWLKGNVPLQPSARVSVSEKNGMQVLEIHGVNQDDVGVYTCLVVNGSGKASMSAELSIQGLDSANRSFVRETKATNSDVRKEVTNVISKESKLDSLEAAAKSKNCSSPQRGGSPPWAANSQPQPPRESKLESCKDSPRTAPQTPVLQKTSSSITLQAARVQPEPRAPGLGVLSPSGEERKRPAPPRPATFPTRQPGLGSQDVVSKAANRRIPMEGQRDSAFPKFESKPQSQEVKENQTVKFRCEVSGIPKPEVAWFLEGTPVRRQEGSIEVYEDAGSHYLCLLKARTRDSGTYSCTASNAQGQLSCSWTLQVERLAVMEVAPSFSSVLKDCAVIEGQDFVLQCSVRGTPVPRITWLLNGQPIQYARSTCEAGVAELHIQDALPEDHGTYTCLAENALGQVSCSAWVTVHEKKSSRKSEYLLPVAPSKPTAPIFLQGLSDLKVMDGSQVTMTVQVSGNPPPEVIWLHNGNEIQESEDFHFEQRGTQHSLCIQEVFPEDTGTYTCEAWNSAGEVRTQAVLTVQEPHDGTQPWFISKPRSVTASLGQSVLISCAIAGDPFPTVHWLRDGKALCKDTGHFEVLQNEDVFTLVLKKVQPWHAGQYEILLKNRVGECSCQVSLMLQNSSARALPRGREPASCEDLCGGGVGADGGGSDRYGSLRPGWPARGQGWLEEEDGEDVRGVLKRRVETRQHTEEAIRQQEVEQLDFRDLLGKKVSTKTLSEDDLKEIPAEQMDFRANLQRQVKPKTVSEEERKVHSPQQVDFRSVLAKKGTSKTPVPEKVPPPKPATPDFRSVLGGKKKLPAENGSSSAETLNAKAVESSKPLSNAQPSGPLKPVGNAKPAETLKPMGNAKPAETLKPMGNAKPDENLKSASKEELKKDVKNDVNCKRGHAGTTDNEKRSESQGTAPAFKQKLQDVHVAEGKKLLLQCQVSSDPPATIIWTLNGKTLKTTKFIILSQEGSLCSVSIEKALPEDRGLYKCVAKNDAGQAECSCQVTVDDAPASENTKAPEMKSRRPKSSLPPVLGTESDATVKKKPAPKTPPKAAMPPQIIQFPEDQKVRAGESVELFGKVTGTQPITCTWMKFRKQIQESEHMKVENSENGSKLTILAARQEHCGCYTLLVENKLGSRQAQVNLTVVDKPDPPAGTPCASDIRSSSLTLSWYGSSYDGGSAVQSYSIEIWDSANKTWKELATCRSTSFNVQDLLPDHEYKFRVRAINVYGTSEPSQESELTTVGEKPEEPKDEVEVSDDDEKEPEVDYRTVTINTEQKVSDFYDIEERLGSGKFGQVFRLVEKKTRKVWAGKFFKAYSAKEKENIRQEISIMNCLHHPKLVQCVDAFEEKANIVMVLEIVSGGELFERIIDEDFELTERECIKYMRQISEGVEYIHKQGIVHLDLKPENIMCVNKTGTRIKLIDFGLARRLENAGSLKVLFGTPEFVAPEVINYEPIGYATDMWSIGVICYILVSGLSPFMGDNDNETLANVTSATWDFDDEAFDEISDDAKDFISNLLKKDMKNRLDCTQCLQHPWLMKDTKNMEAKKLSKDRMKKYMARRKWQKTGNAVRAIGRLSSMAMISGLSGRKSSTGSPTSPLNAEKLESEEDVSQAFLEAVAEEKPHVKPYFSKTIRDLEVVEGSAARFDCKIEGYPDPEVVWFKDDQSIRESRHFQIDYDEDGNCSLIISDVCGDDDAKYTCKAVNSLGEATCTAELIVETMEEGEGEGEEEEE", "chain of UniProt Q06187 (whole entry, looked up)": "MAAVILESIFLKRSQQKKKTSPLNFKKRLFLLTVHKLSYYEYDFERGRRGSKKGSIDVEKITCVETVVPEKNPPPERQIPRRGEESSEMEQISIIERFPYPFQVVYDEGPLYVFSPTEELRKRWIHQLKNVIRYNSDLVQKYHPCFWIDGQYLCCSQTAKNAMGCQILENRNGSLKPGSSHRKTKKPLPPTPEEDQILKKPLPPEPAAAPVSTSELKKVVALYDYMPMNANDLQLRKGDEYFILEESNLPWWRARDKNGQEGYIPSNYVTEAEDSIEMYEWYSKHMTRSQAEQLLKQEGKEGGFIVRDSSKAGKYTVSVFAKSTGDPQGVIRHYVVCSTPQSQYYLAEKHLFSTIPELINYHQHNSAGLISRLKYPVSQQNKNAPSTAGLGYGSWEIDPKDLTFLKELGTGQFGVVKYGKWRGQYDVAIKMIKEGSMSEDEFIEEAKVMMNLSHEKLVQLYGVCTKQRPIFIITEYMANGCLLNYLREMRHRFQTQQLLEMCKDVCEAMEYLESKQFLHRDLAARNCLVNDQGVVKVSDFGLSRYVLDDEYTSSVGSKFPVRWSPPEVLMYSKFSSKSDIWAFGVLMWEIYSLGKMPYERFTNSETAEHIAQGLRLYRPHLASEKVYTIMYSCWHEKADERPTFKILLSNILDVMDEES", "chain of UniProt O14578 (whole entry, looked up)": "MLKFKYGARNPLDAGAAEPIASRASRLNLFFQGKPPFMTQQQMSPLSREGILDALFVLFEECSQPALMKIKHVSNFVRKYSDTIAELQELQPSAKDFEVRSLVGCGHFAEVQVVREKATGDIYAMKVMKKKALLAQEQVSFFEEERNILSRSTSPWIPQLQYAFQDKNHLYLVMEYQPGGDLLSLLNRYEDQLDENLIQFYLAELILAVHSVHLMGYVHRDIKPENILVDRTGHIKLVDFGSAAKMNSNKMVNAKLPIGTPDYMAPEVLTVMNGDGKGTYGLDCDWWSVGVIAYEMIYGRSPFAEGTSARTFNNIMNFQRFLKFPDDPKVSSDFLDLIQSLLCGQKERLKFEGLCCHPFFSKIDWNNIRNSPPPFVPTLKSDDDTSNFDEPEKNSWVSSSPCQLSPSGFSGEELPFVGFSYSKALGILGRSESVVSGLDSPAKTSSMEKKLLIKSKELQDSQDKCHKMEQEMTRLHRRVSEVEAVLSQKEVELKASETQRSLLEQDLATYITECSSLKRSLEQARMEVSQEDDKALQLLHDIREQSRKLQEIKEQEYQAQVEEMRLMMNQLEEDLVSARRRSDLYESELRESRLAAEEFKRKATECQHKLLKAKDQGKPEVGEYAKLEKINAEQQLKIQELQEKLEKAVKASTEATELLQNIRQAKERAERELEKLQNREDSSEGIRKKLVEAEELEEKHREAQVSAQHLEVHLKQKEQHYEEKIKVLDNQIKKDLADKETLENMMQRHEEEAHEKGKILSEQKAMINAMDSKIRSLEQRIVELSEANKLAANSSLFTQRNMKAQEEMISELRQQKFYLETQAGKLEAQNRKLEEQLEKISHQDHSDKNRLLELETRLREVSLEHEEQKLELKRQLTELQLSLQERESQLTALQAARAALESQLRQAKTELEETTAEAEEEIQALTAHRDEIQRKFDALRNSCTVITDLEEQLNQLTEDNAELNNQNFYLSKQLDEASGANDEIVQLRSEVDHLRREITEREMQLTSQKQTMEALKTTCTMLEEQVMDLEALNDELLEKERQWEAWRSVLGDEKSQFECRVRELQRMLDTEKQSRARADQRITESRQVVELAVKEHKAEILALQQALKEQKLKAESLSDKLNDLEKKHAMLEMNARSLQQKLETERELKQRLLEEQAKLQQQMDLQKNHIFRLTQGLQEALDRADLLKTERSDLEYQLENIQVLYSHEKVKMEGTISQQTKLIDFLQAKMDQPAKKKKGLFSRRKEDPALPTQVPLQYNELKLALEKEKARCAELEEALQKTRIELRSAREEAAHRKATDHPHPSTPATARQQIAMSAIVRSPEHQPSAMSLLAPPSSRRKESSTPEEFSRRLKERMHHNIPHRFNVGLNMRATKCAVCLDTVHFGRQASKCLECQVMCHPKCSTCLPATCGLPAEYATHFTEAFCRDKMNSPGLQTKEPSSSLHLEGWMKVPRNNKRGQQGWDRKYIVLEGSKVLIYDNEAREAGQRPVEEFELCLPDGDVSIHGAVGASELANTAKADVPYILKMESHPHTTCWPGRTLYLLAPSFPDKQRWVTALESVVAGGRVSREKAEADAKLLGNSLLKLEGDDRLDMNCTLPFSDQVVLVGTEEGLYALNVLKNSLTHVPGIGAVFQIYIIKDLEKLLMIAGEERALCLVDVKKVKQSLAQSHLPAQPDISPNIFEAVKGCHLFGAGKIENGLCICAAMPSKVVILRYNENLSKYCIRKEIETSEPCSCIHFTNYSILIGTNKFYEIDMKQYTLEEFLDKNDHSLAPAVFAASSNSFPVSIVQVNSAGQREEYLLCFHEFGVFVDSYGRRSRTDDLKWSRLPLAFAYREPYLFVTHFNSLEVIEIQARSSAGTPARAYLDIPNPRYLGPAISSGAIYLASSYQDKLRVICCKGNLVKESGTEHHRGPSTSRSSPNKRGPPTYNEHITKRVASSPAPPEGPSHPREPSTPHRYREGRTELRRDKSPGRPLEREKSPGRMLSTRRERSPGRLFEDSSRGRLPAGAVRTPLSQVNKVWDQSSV", "chain of UniProt O15264 (whole entry, looked up)": "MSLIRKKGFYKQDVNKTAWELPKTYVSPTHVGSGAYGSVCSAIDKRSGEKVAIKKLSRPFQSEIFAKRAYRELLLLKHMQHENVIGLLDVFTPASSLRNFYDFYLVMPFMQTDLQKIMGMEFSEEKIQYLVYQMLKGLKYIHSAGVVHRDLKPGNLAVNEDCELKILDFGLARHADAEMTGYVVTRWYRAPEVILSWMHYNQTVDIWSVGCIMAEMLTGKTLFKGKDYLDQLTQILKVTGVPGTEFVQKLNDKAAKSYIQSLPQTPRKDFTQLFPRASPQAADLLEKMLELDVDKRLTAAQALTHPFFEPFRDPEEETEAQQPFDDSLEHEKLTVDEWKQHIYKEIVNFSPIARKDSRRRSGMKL"}
{"data": "Series 1", "Structure (SMILES)": "Cc1cc(-n2nc(Cc3cc(F)cc(C(F)(F)F)c3)nc2C)ccc1C(N)=O", "technique": "competition with immobilised ligand", "concentration": "1 µM"}
{"target": "ERBB3 (Homo sapiens, UniProt P21860)", "assay": "cell-free assay", "remaining binding": "100%"}
{"target": "MET (Homo sapiens, UniProt P08581)", "assay": "cell-free assay", "remaining binding": "81%"}
{"target": "SGK3 (Homo sapiens, UniProt Q96BR1)", "assay": "cell-free assay", "remaining binding": "80%"}
{"target": "CIT (Homo sapiens, UniProt O14578)", "assay": "cell-free assay", "remaining binding": "95%"}
{"target": "CILK1 (Homo sapiens, UniProt Q9UPZ9)", "assay": "binding", "remaining binding": "100%"}
{"target": "MAP2K2 (Homo sapiens, UniProt P36507)", "assay": "cell-free assay", "remaining binding": "100%"}
{"target": "KIT (Homo sapiens, UniProt P10721)", "assay": "cell-free assay", "remaining binding": "95%"}
{"target": "MYLK (Homo sapiens, UniProt Q15746)", "assay": "cell-free assay", "remaining binding": "100%"}
{"target": "Ribosomal protein S6 kinase alpha-4, C-terminal kinase domain (RPS6KA4, Homo sapiens, UniProt O75676)", "assay": "cell-free assay", "remaining binding": "100%"}
{"target": "MAP4K5 (Homo sapiens, UniProt Q9Y4K4)", "assay": "cell-free assay", "remaining binding": "100%"}
{"target": "CLK4 (Homo sapiens, UniProt Q9HAZ1)", "assay": "cell-free assay", "remaining binding": "96%"}
{"target": "BRSK1 (Homo sapiens, UniProt Q8TDC3)", "assay": "cell-free assay", "remaining binding": "100%"}
{"target": "SNRK (Homo sapiens, UniProt Q9NRH2)", "assay": "cell-free assay", "remaining binding": "100%"}
{"target": "Ribosomal protein S6 kinase alpha-3, N-terminal kinase domain (RPS6KA3, Homo sapiens, UniProt P51812)", "assay": "cell-free assay", "remaining binding": "95%"}
{"data": "Series 2", "cell line": "A-375", "concentration": "100 µM", "time": "18 h"}
{"Compound": "O=C(O)C1=C(CSc2nnnn2CS(=O)(=O)O)CS[C@@H]2[C@H](NC(=O)[C@H](O)c3ccccc3)C(=O)N12", "viability [%]": 94.6}
{"Compound": "C[N+](C)(C)CCO", "viability [%]": 101}
{"Compound": "Cc1cc(C(C)(C)C)c(O)c(C)c1CC1=NCCN1", "viability [%]": 93.8}
{"Compound": "CCN1CCCC1CNC(=O)c1cc(S(=O)(=O)CC)c(N)cc1OC (stereo not drawn)", "viability [%]": 87.7}
{"Compound": "CC1=C(/C=C/C(C)=C/C=C/C(C)=C/C(=O)O)C(C)(C)CCC1", "viability [%]": 62.1}
{"Compound": "C[C@@H](NCCCc1cccc(C(F)(F)F)c1)c1cccc2ccccc12", "viability [%]": 8.28}
{"Compound": "CC(=O)OCC(=O)[C@@]12OC3(CCCC3)O[C@@H]1C[C@H]1[C@@H]3CCC4=CC(=O)C=C[C@]4(C)[C@@]3(F)[C@@H](O)C[C@@]12C", "viability [%]": 69.9}
{"Compound": "CCC(=O)NCC[C@@H]1CCc2ccc3c(c21)CCO3", "viability [%]": 85.7}
{"Compound": "NS(=O)(=O)c1cc2c(cc1Cl)N=CNS2(=O)=O", "viability [%]": 96}
{"Compound": "O=C(O)CCCCCCCC(=O)O", "viability [%]": 105}
{"data": "Series 3", "Structure (SMILES)": "C[S+]([O-])c1ccc(-c2nc(-c3ccncc3)c(-c3ccc(F)cc3)[nH]2)cc1 (stereo not drawn)", "read-out": "enzyme activity", "action": "inhibitor", "concentration": "0.5 µM", "relative to": "control"}
{"target": "AKT3 (Homo sapiens, UniProt Q9Y243)", "remaining activity": "102%"}
{"target": "PRKG1 (Homo sapiens, UniProt Q13976)", "remaining activity": "94.3%"}
{"target": "EPHA5 (Homo sapiens, UniProt P54756)", "remaining activity": "89.5%"}
{"target": "BTK (Homo sapiens, UniProt Q06187)", "remaining activity": "97.2%"}
{"target": "MAPK13 (Homo sapiens, UniProt O15264)", "remaining activity": "106%"}
{"target": "PRKCD (Homo sapiens, UniProt Q05655)", "remaining activity": "107%"}
{"target": "MAPK12 (Homo sapiens, UniProt P53778)", "remaining activity": "105%"}
{"target": "LYN (Homo sapiens, UniProt P07948)", "remaining activity": "91.8%"}
{"data": "Mixed results"}
{"SMILES": "O=C1CCC(N2Cc3c(ccc4c3OCC43CCC(Cc4ccccc4)CC3)C2=O)C(=O)N1 (stereo not drawn)", "target": "CRBN/Zinc finger protein Helios (Homo sapiens, UniProt Q96SW2+Q9UKS7)", "assay": "degrader, HiBiT", "system": "HEK293", "setting": "0.1694 nM", "endpoint": "protein remaining", "result": "104%"}
